# Assay results gathered from unrelated publications.
# Each line is one published result; not all experiments were run side by side.
# Organism: Escherichia coli
SMILES,test,test system,conditions,MIC
CO/N=C(\C(=O)N[C@@H]1C(=O)N2C(C(=O)O)=C(COC(C)=O)CS[C@H]12)c1csc(N)n1,broth microdilution,ATCC 25922,5% CO2,0.06 µg/mL
Cc1cc(-c2cn[nH]c2-c2cccc(OCc3cccc(C#N)c3)c2)cc(C)n1,broth microdilution,BW25113,,2 µg/mL
N=C(N)c1ccc(OCc2ccccc2COc2ccc(C(=N)N)cc2)cc1,,BW25113,"compound alone, vancomycin checkerboard",> 200 µg/mL
CCc1ccccc1N/N=C/c1c2c(O)c3c(O)c(C)c4c(c3c1O)C(=O)[C@@](C)(O/C=C/[C@H](OC)[C@H](C)[C@@H](OC(C)=O)[C@H](C)[C@H](O)[C@H](C)[C@@H](O)[C@@H](C)/C=C/C=C(\C)C(=O)N2)O4,,ATCC 25922,,20 µM
CO/N=C(\C(=O)N[C@@H]1C(=O)N2C(C(=O)[O-])=C(C[N+]3(C)CCCC3)CS[C@H]12)c1csc(N)n1,broth microdilution,ATCC 25922,ambient air,0.03 µg/mL
CC[C@H](C)[C@H](NC(=O)[C@H](CCCCN)NC(=O)[C@H](CCC(=O)O)NC(=O)CNC(=O)CNC(=O)[C@H](CCCCN)NC(=O)[C@H](CCCNC(=N)N)NC(=O)[C@H](CC(C)C)NC(=O)[C@H](CC(C)C)NC(=O)CN)C(=O)NCC(=O)N[C@@H](CCC(=O)O)C(=O)N[C@@H](CCCCN)C(=O)N[C@@H](CC(C)C)C(=O)N[C@@H](CCCCN)C(=O)N[C@@H](CCCCN)C(=O)N[C@H](C(=O)NCC(=O)N[C@@H](CCC(N)=O)C(=O)N[C@@H](CCCCN)C(=O)N[C@H](C(=O)N[C@@H](CCCCN)C(=O)N[C@@H](CC(N)=O)C(=O)N[C@@H](Cc1ccccc1)C(=O)N[C@@H](Cc1ccccc1)C(=O)N[C@@H](CCC(N)=O)C(=O)N[C@@H](CCCCN)C(=O)N[C@@H](CC(C)C)C(=O)N[C@H](C(=O)N1CCC[C@H]1C(=O)N[C@@H](CCC(N)=O)C(=O)N1CCC[C@H]1C(=O)N[C@@H](CCC(=O)O)C(=O)N[C@@H](CCC(N)=O)C(=O)O)C(C)C)[C@@H](C)CC)[C@@H](C)CC,broth microdilution,ATCC 25922,"16 h, 37 °C, cation-adjusted Mueller-Hinton broth",128 µg/mL
NCC[C@H](O)C(=O)N[C@@H]1C[C@H](N)[C@@H](O[C@H]2O[C@H](CN)[C@@H](O)[C@H](O)[C@H]2O)[C@H](O)[C@H]1O[C@H]1O[C@H](CO)[C@@H](O)[C@H](N)[C@H]1O,broth microdilution,ATCC 25922,ambient air,2 µg/mL
Cc1c(CN(C)C(=O)/C=C/c2cnc3c(c2)CC(NC(=O)OC(C)(C)C)C(=O)N3)oc2ccccc12 (centres unmarked),broth microdilution,AR-0493,,> 32 µg/mL
CC[C@H]1OC(=O)C[C@@H](O)[C@H](C)[C@@H](O[C@@H]2O[C@H](C)[C@@H](O)[C@H](N(C)C)[C@H]2O)[C@@H](CCN2C[C@H](C)C[C@H](C)C2)C[C@@H](C)C(=O)/C=C/C(C)=C/[C@@H]1CO[C@@H]1O[C@H](C)[C@@H](O)[C@@H](OC)[C@H]1OC,,ATCC 25922,,320 µM
C/C(=N/NC(=O)c1cn(-c2ccccc2)nc1-c1ccccc1)c1c(O)cc(C)oc1=O,,DH5α,,300 µg/mL
CC(=O)NC[C@H]1CN(c2ccc(N3CCSCC3)c(F)c2)C(=O)O1,broth microdilution,,compound alone,10 µM
O=C(Cc1ccccc1)N[C@@H]1C(=O)N2C(C(=O)O)=C(CSc3cccc4cccnc34)CS[C@H]12,,2018-015,,> 128 µg/mL
CC(C)(O/N=C(\C(=O)N[C@@H]1C(=O)N2C(C(=O)[O-])=C(C[N+]3(CCNC(=O)c4ccc(O)c(O)c4Cl)CCCC3)CS[C@H]12)c1csc(N)n1)C(=O)O,,DSM 1116,iron-depleted medium,0.1 µM
N=C(N)c1ccc(OCc2ccc3ccc(COc4ccc(C(=N)N)cc4)cc3c2)cc1,,BW25113,compound alone,200 µg/mL
CCCNC[C@@]1(O)[C@@H](C)O[C@H](O[C@H]2[C@H](C)[C@@H](O[C@H]3O[C@@H](C)C[C@@H](N(C)C)[C@@H]3O)[C@](C)(O)C[C@@H](C)CN[C@H](C)[C@@H](O)[C@](C)(O)[C@@H](CC)OC(=O)[C@@H]2C)C[C@]1(C)OC (stereo in doubt),,ATCC 25922,,5 µM
CC(NCCC(c1ccccc1)c1ccccc1)c1ccccc1 (centres unmarked),,MC4100 tolC::Tn10,,16 µg/mL
Cc1c(CN(C)C(=O)/C=C/c2cnc3c(c2)CC(CCN)C(=O)N3)oc2ccccc12.Cl (centres unmarked),broth microdilution,AR-0495,,2 µg/mL
C[C@@H]1O[C@@H]1P(=O)(O)O,broth microdilution,ATCC 25922,5% CO2,0.5 µg/mL
CO[C@H]1/C=C/O[C@@]2(C)Oc3c(C)c(O)c4c(O)c(c(/C=N/Nc5cccc(Cl)c5)c(O)c4c3C2=O)NC(=O)/C(C)=C/C=C/[C@H](C)[C@H](O)[C@@H](C)[C@@H](O)[C@@H](C)[C@H](OC(C)=O)[C@H]1C,,ATCC 25922,,20 µM
CO/N=C(\C(=O)N[C@@H]1C(=O)N2C(C(=O)O)=C(COC(C)=O)CS[C@H]12)c1csc(N)n1,broth microdilution,,"24 h, 37 °C, clinical isolate",> 400 µM
CCOC(=O)CCC(=O)O[C@H]1[C@H](O[C@@H]2[C@@H](C)[C@H](O[C@H]3C[C@@](C)(OC)[C@@H](O)[C@H](C)O3)[C@@H](C)C(=O)O[C@H](CC)[C@@](C)(O)[C@H](O)[C@@H](C)C(=O)[C@H](C)C[C@@]2(C)O)O[C@H](C)C[C@@H]1N(C)C,,ATCC 25922,,160 µM
NC[C@H]1O[C@H](O[C@H]2[C@H](O)[C@@H](O[C@H]3O[C@H](CO)[C@@H](O)[C@H](N)[C@H]3O)[C@H](N)C[C@@H]2N)[C@H](N)C[C@@H]1O,broth microdilution,G92,18 h,16 µg/mL
N=C(N)c1ccc(OCCCCCCCCCOc2ccc(C(=N)N)cc2)cc1,,BW25113,"compound alone, rifampicin checkerboard",> 25 µg/mL
CC(C)Oc1c(NC(=O)c2ccc(NC(=O)[C@H](CC(N)=O)NC(=O)c3cc(F)c(/N=N/c4c(F)cccc4F)c(F)c3)cc2)ccc(C(=O)N/N=C/c2ccc(C(=O)O)s2)c1O,,BW25113,"18 h, 37 °C, irradiated at 365 nm, photostationary state",> 6.4 µg/mL
N=C(N)c1ccc(OCc2ccc(COc3ccc(C(=N)N)cc3)cc2)cc1,,BW25113,compound alone,200 µg/mL
CC1(C)SC2C(NC(=O)C(NC(=O)C3=C(O)C(c4ccccc4)NC3=O)c3ccccc3)C(=O)N2C1C(=O)O (centres unmarked),broth microdilution,BW25113 wild type,18 h,25 µg/mL
O=C(Cc1ccccc1)N[C@@H]1C(=O)N2C(C(=O)O)=C(CSc3cccc4cccnc34)CS(=O)(=O)[C@H]12,,2018-015,,> 128 µg/mL
COc1c(N2C[C@@H]3CCCN[C@@H]3C2)c(F)cc2c(=O)c(C(=O)O)cn(C3CC3)c12,broth microdilution,G92,18 h,0.125 µg/mL
CC(=O)NC[C@H]1CN(c2ccc(N3CCN(C(=O)CO)CC3)c(F)c2)C(=O)O1,broth microdilution,,compound alone,5 µM
N=C(N)c1ccc(OCCS(=O)(=O)CCOc2ccc(C(=N)N)cc2)cc1,,BW25113,"compound alone, rifampicin checkerboard",> 200 µg/mL
N#Cc1ccc2[nH]c(CNCC34CC5CC(CC(C5)C3)C4)nc2c1,,ATCC 25922,,> 128 µg/mL
CCCCCCCCCCCC[N+](C)(C)Cc1ccccc1.[Br-],two-fold serial dilution,ATCC 8739,dark or light not distinguished,> 640 µM
C[C@@H]1[C@H](O)[C@@H](C)/C=C/C=C/C=C/C=C/C=C/C=C/C=C/[C@H](O[C@@H]2O[C@H](C)[C@@H](O)[C@H](N)[C@@H]2O)C[C@@H]2O[C@](O)(C[C@@H](O)C[C@@H](O)[C@H](O)CC[C@@H](O)C[C@@H](O)CC(=O)O[C@H]1C)C[C@H](O)[C@H]2C(=O)O,,"drug-resistant clinical isolate, MHB","24 h, 37 °C",128 µM
CC(C)Oc1c(NC(=O)c2ccc(N3C(=O)C[C@H](NC(=O)c4cc(F)c(/N=N/c5c(F)cccc5F)c(F)c4)C3=O)cc2)ccc(C(=O)N/N=C/c2c(Cl)cncc2Cl)c1O,,BW25113,"18 h, 37 °C, irradiated at 365 nm, photostationary state",> 6.4 µg/mL
CN(C)c1ccc2nc3ccc(=[N+](C)C)cc-3sc2c1,,"ATCC BAA-196, resistant","18 h, 37 °C, LED light 10 min, 1.57 mW",> 128 µM
CO[C@H]1/C=C/O[C@@]2(C)Oc3c(C)c(O)c4c(O)c(c(/C=N/N5CCN(C)CC5)c(O)c4c3C2=O)NC(=O)/C(C)=C\C=C\[C@H](C)[C@H](O)[C@@H](C)[C@@H](O)[C@@H](C)[C@H](OC(C)=O)[C@@H]1C,broth microdilution OD600,Mueller-Hinton broth,"24 h, 37 °C, added: 2.5 mM CaCl2",32 µM
COc1cc(C=O)ccc1OC1=C(Cl)C(=O)c2ccccc2C1=O,broth microdilution,MTCC 405,,10 µg/mL
CN(C)[C@@H]1C(O)=C(C(N)=O)C(=O)[C@@]2(O)C(O)=C3C(=O)c4c(O)cccc4[C@@](C)(O)[C@H]3C[C@@H]12,broth microdilution,,18 h,1 µg/mL
CC(C)Oc1c(NC(=O)c2ccc(NC(=O)[C@H](CC(N)=O)NC(=O)c3ccc(/N=N/c4ccc(C#N)cc4)cc3)cc2)ccc(C(=O)Nc2ccc(C(=O)O)cc2)c1O,,BW25113,"18 h, 37 °C, irradiated at 365 nm, photostationary state",0.45 µg/mL
N=C(N)c1ccc(OCCCCCCCCOc2ccc(C(=N)N)cc2)cc1,,BW25113,"compound alone, rifampicin checkerboard",> 25 µg/mL
CC1(C)S[C@@H]2[C@H](NC(=O)[C@H](N)c3ccc(O)cc3)C(=O)N2[C@H]1C(=O)O,broth microdilution,,,32 µg/mL
CC1COc2c(N3CCN(C)CC3)c(F)cc3c(=O)c(C(=O)O)cn1c23 (centres unmarked),broth microdilution,,18 h,0.0625 µg/mL
O=C(N[C@H](CO)[C@H](O)c1ccc([N+](=O)[O-])cc1)C(Cl)Cl,,ATCC 25922,,40 µM
Oc1c(Br)cc(Br)c2nc3ccccc3nc12,,,,> 100 µM

# Excerpt of the above:
SMILES,test,test system,conditions,MIC
CC1COc2c(N3CCN(C)CC3)c(F)cc3c(=O)c(C(=O)O)cn1c23 (centres unmarked),broth microdilution,,18 h,0.0625 µg/mL
CC[C@H](C)[C@H](NC(=O)[C@H](CCCCN)NC(=O)[C@H](CCC(=O)O)NC(=O)CNC(=O)CNC(=O)[C@H](CCCCN)NC(=O)[C@H](CCCNC(=N)N)NC(=O)[C@H](CC(C)C)NC(=O)[C@H](CC(C)C)NC(=O)CN)C(=O)NCC(=O)N[C@@H](CCC(=O)O)C(=O)N[C@@H](CCCCN)C(=O)N[C@@H](CC(C)C)C(=O)N[C@@H](CCCCN)C(=O)N[C@@H](CCCCN)C(=O)N[C@H](C(=O)NCC(=O)N[C@@H](CCC(N)=O)C(=O)N[C@@H](CCCCN)C(=O)N[C@H](C(=O)N[C@@H](CCCCN)C(=O)N[C@@H](CC(N)=O)C(=O)N[C@@H](Cc1ccccc1)C(=O)N[C@@H](Cc1ccccc1)C(=O)N[C@@H](CCC(N)=O)C(=O)N[C@@H](CCCCN)C(=O)N[C@@H](CC(C)C)C(=O)N[C@H](C(=O)N1CCC[C@H]1C(=O)N[C@@H](CCC(N)=O)C(=O)N1CCC[C@H]1C(=O)N[C@@H](CCC(=O)O)C(=O)N[C@@H](CCC(N)=O)C(=O)O)C(C)C)[C@@H](C)CC)[C@@H](C)CC,broth microdilution,ATCC 25922,"16 h, 37 °C, cation-adjusted Mueller-Hinton broth",128 µg/mL
C/C(=N/NC(=O)c1cn(-c2ccccc2)nc1-c1ccccc1)c1c(O)cc(C)oc1=O,,DH5α,,300 µg/mL
CCCCCCCCCCCC[N+](C)(C)Cc1ccccc1.[Br-],two-fold serial dilution,ATCC 8739,dark or light not distinguished,> 640 µM
NCC[C@H](O)C(=O)N[C@@H]1C[C@H](N)[C@@H](O[C@H]2O[C@H](CN)[C@@H](O)[C@H](O)[C@H]2O)[C@H](O)[C@H]1O[C@H]1O[C@H](CO)[C@@H](O)[C@H](N)[C@H]1O,broth microdilution,ATCC 25922,ambient air,2 µg/mL
CO[C@H]1/C=C/O[C@@]2(C)Oc3c(C)c(O)c4c(O)c(c(/C=N/Nc5cccc(Cl)c5)c(O)c4c3C2=O)NC(=O)/C(C)=C/C=C/[C@H](C)[C@H](O)[C@@H](C)[C@@H](O)[C@@H](C)[C@H](OC(C)=O)[C@H]1C,,ATCC 25922,,20 µM
